Experimental data of several laboratories.
Numbered parts are unrelated; each lists some results of a single study. Substitutions count along the parent as printed.

Block 1
Target: RING finger protein unkempt homolog, zinc fingers 1-6, GST-SBP tag (UNK, Homo sapiens, UniProt Q9C0B0, residues 30-357)
Chain of UniProt Q9C0B0 (30-357, looked up): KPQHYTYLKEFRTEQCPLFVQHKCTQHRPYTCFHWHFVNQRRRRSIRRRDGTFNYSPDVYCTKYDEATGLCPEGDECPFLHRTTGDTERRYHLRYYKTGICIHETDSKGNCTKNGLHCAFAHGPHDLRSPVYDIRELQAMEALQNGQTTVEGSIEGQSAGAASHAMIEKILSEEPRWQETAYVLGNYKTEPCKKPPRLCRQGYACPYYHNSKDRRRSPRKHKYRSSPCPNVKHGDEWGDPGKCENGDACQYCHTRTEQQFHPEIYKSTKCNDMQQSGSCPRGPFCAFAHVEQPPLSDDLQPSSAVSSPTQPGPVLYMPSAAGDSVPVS
Technique: RNA Bind-n-Seq
Form: RNA
Sample: in vitro
Concentration: not given
Setting: RNA with constant flanks, human-mouse chimeric sites, ends assumed
Reference: input RNA pool
Direction: higher = stronger binding
All sequences stand within: GGGAGUUCUACAGUCCGACGAUC … CAACAGAGGAUUGAGCAUCA
The bound/input enrichment of `AUAAAGGCCAUGUUGAGUGGCCCAGGUCAGUUUGCUGAGAAUGAAACCAACGAGGUCAAUUUUAGAGAGAUCCCCUCACAUGUGCUAUCAAAAGUGUGCAUGUAUUUUACCUACAAGGUC` is reported as 0.165 ratio.
`ACAGUUAUAUUGUUGAGUUUCAUUUUCUUGUAUGUUUAUGGUGUCUGCUUGCCUGUGACUUCUGGUAAAAUAAAAUAAGCCUUUGAAAAUAUUUUAGCAUGGUAUUUAACAUUUUCUAAA` has a bound/input enrichment of 0.991 ratio.
`AUGGAGAAGGAUUCUCUGCCUCGCUUUGUGCGCUCUGAAUUUUAUAAGGAGCUAAUCAAGUAGUCAUCUGGUCAGGCUUCCAAAAGUUGCCCUGUGAUAUUUCCUCCAUCCUUUGUAGCA` gave a bound/input enrichment of 0.169 ratio.
`UUGGAAGGACCAGAGCCCAGUCAGCUCAAACCAUUAGUCAUACAGGCUAUGCCCACCCUAAUAGAACUAAUGAAAGACCCCAGUGUAGUUGUUCGAGACACAACAGCAUGGACUGUAGGC` has a bound/input enrichment of 0.606 ratio.
For `AGAUUCCCCCUCCUGAGACCUCCUCCGAAAUUGGCAUCUCUUACAGAUGGUUCAUCUCCUGUUAGCGUUUUAGUUUGGACCACCCAGCCUUGGACAAUUCCCGCCAACCAGGCAAUUUGC`, the bound/input enrichment was 1.06 ratio.
The bound/input enrichment of `GGCCUGGGACCGUCCUGGGCUAGUACAAUAGCGGCAGGUGGAGGCUCGAGAGGAAAGUUUGUUAGUGGAGGCAGUGGUAGAGGCCGUCAUGUACGGUCUUUACACGAAUAGAUGUGUUCU` is reported as 0.582 ratio.
`AGCACAACACCAGCUAAGCUAAGAAAUCCUUGUACAAGUGAACAAAACUGCACCAGCCCAUUUAGCUACAAAAAUGUGCUUAGUCUUACUGACAGAGGAGAGUUUUUUAAUGAACUUGUU` gave a bound/input enrichment of 1.54 ratio.
`CUGUGACCACAAGAUCCUACCUGAGUGGCAGCUGAAGUUGACUCCCUCUCCUUGCCUGCCUAGUUUCCCACUGCCCCUUGAGUCCACAGUGUCGGCUGAGAUGUUGCCUCUGCACGGUUC` gave a bound/input enrichment of 0.301 ratio.
`CAGUCCCCGUGUCCCAGUGCAGGACGAUGUGAACAAAUCGAAGACAUGGACCCUCUAUUGUAGUUCUUGAUUCUCGAAAUGUGCUAUUAUUGUUUGUCUUUUUUUUUAAAAGAAAAGAGA` gave a bound/input enrichment of 0.241 ratio.

Block 2
Target: RNA binding protein fox-1 homolog 2, RRM domain, GST-SBP tag (RBFOX2, Homo sapiens, UniProt O43251-10, residues 100-194)
Technique: RNA Bind-n-Seq
Form: RNA
Sample: in vitro
Concentration: 365 nM
Setting: natural RNA segment, single round, ends assumed
Reference: no-protein control
Direction: higher = stronger binding
All sequences stand within: GGGAGUUCUACAGUCCGACGAUC … UGGAAUUCUCGGGUGCCAA
Target sequence (chain): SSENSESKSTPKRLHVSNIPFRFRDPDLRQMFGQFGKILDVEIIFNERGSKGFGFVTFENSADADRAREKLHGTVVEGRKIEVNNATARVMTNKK
`AAUCAAAUGUGAAGUUGAUCCAGAGAGAGCCUAGGUGACUGGGGAGCCAUUGAGUAGGGAAUUGUAUUGGAUGAUGGUUUUCAUUUUUGUUACUGAAAACAAAGUCUUGU`: “RBNS enrichment (R)” 1.4.
Under “RBNS enrichment (R)”, `CCACCCCUGAAUAGCAUGUUUCUCCCCCAUGGCACAAGGCAGGUGAAGCCCGUGCUCCCUGGAAGCCCUCACCUUCCACAGACAACAGAGAUUUCCUGCUAGAGGAAAGG` is recorded as 5.64.
For `UGAUACUGCCACAUGCUGCACAGUGCCCACCCAUCAGAAGACACCUUGAGACUGUCCCACAGUGCUCCUCUAGAGGCUGCUGGGGCCACCCUGACAUCACUCAGCACUCA`, “RBNS enrichment (R)” read 0.343.
`UAAAUGCCAUUAUUUUUAUAUGGAAAUUUUAUAGAAGAGCUAUUUCUGUAUACGUAAUUACUCCUGAUUUUCUGAAAUUGCUUCUGGUAGAUAACAGACAAGUCCUAAGC` — result for “RBNS enrichment (R)”: 0.549.
`ACAUUUGAGGUGGCCACAUGAUUGGGUGGAAUUCAUCCCUCCUGUCUUCACCAUUCCUCCCAGCUCCACAUCUUAAGGAUGCUUACGGGAGACGAAGCUGUGUCAUCAAG` — result for “RBNS enrichment (R)”: 0.216.
For `GGGGUACCCCCUUUGCACUUUGACCCUCCUGAUGACGUGGGGCCCAGCACAGGGACCAAGAAGGCUGGUGGAAGUGCACUCAGACCCCAGGUGGGAGGGCUCUGGGAGUG`, “RBNS enrichment (R)” read 0.496.
`GCCACAUCUACAUUAGCUUGAGAAGCAGAGGAUUCUGUCAACAUGUGGCCAAGGGCUGUUGGACAAAAAGCUGUGCUUAAGCAGGCAUAUAGUGUGUGUACAUCUUUCGA`: “RBNS enrichment (R)” 0.454.
For `UGUGAACCACGCUCAGGCCACACAGAGACACAUACUUGGUUUCUGGGACUGAGACCCAGGCCUGGCAGGACCGUGCCUACAGAUACUGCAAACGUUCCUACAGCCUAGAG`, “RBNS enrichment (R)” read 0.282.
`CACCUCCCUGGACUACUAAGCUGGAGACCUACUGGCCACAUGUCUGAAAAAAUGUUCCCUGGCUAGUGUACUCCAUUCUCUUUCCUAGUGGCUCGGGCCAGACUUCAUCC`: “RBNS enrichment (R)” 0.396.
For `UUCUCUGUGUAGCCCUGGCUGUCCUGGAACUCACUUUGUAGACCAGGCUGGCCUCGAACUCAGAAAUCUGCCUGCCUCUGCCUCCCAAGUGCUGGGAUUAAAGGCGUGGG`, “RBNS enrichment (R)” read 0.243.
For `AAGGUGGAGAGAGCUGGCAACUACUGUGAGCAAGUCCCCUAGCCCCUGACCAGCCUCCUCCCAUGACUGGUGACUGUUUAAUGAGCUGUGCAUCCCCCACAAAAACAUGA`, “RBNS enrichment (R)” read 0.432.
Under “RBNS enrichment (R)”, `UUUAUCCUGUAUUUAUAUGUUGUACACAGUACUGGCCAAUUCUGUAAAUGGAUGUAUUGUACAGAGAACACGAACGUCUCUUCCUUAUUUUACGUCUUCAGCACCCUUGA` is recorded as 0.47.

Block 3
Target: Histone acetyltransferase KAT6A, winged helix 1, GST fusion (KAT6A, Homo sapiens, UniProt Q92794, residues 1-85)
Technique: protein binding microarray
Form: double-stranded DNA, one strand shown
Sample: in vitro
Concentration: not given
Setting: 8-mer, flanks averaged, mean of 2 arrays, mostly near background
Reference: not given
Direction: higher = stronger binding
Residues (chain): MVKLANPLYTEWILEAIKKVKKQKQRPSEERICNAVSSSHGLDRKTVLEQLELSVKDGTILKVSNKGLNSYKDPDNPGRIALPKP
For `AGTGATTA`, the E-score was 0.00337.
`ACAGTGAA` has an E-score of -0.0666.
With `CAAAGCCA` the E-score was -0.211.
With `CTTCCGTC` the E-score was 0.284.
`ACCAACAT` gave an E-score of -0.0788.
With `AAAAATAG` the E-score was -0.163.
`GCCTCCCA` gave an E-score of -0.185.
`AAACTTCA` has an E-score of -0.0964.
With `CCACTATC` the E-score was -0.26.
With `CAACATCA` the E-score was -0.132.
`ACGAGTAT` has an E-score of -0.0294.
`TATGGACA` gave an E-score of -0.104.
For `GACATCCC`, the E-score was 0.0917.
The E-score of `AGCAGGAC` is reported as -0.181.
`ATGCTTCG` gave an E-score of -0.0321.
`CGTATCTC` gave an E-score of 0.106.
For `CGCTATTA`, the E-score was 0.17.
`GCTTCTCC` has an E-score of 0.00579.
With `AGTTTTCC` the E-score was 0.169.
With `GCAGCTCC` the E-score was -0.0776.

Block 4
Target: CCNB3, cyclin fold, Cln2 fusion (human)
Technique: yeast growth competition, sequencing
Sample: yeast
Setting: weak parent motif
Reference: not given
Direction: higher = stronger binding
Starting sequence: SLBP docking peptide (human); ARYKRKLLINDFG
`ARYKRKLLINDQG [F12Q]`: “normalised enrichment score” 0.103.
Under “normalised enrichment score”, `ARYKRHLLINDFG [K6H]` is recorded as -0.715.
`ARYKRKLLINDEG [F12E]` — result for “normalised enrichment score”: -0.0449.
Under “normalised enrichment score”, `ARYKRKLLINLFG [D11L]` is recorded as 0.243.
Under “normalised enrichment score”, `ARYKRWLLINDFG [K6W]` is recorded as 0.233.
For `AHYKRKLLINDFG [R2H]`, “normalised enrichment score” read 0.115.
Under “normalised enrichment score”, `ARYKRKLLINVFG [D11V]` is recorded as 0.241.
`ARYKMKLLINDFG [R5M]`: “normalised enrichment score” 0.258.
`ARDKRKLLINDFG [Y3D]`: “normalised enrichment score” 0.424.
`ARYKRKLLENDFG [I9E]` — result for “normalised enrichment score”: 0.25.
`ARYKHKLLINDFG [R5H]` — result for “normalised enrichment score”: 0.491.
`ARYKRKLLINDMG [F12M]` — result for “normalised enrichment score”: -0.274.
`ARYKRLLLINDFG [K6L]` — result for “normalised enrichment score”: 0.514.
For `ARYKRKLWINDFG [L8W]`, “normalised enrichment score” read 0.52.
`ARYKRKLLIMDFG [N10M]` — result for “normalised enrichment score”: 0.0671.
`ARYKRKLLMNDFG [I9M]` — result for “normalised enrichment score”: 0.376.
`ARYDRKLLINDFG [K4D]` — result for “normalised enrichment score”: 0.0162.
For `YRYKRKLLINDFG [A1Y]`, “normalised enrichment score” read -0.0887.

Block 5
Target: Sal-like protein 4, full length isoform B (SALL4, Homo sapiens, UniProt Q9UJQ4-2, residues 1-616)
Technique: universal PBM
Form: double-stranded DNA, one strand shown
Sample: in vitro
Concentration: not given
Setting: 8-mer, flanks averaged, mean of replicates
Direction: higher = stronger binding
`AGACTACG` has an E-score of -0.165.
For `CGAAGGCA`, the E-score was -0.121.
The E-score of `AGCCTTGA` is reported as -0.00426.
`CACGGTAC` gave an E-score of -0.307.
`GCCTGACA` has an E-score of -0.213.
The E-score of `CCGAGTCC` is reported as -0.141.
With `GACTCTTA` the E-score was 0.194.
For `ATTATCGG`, the E-score was 0.117.
The E-score of `ATTGCGTC` is reported as 0.0901.
With `AAGAAGGA` the E-score was -0.0151.
`ACGCTAGA` gave an E-score of 0.0143.
`AAATGTAG` has an E-score of 0.163.
With `GACCACGA` the E-score was -0.233.
`CTCTTGGA` gave an E-score of -0.135.
For `CACAGTTC`, the E-score was -0.0657.
`AGAGCGAT` has an E-score of -0.23.
With `AACGTTGT` the E-score was 0.176.
`AACATGAG` gave an E-score of 0.143.
`GCCCATAA` has an E-score of 0.00165.
For `CGCATTAC`, the E-score was 0.0207.

Other studies, line by line
For `PhoQ, residues 284 288 289 292 302 303 TTCLQL`, the fold induction was 3.86 (PhoP, residues 12 14 15 18 19 TPLRH (Escherichia coli, UniProt P23836); Sort-seq, item: YFP reporter; E. coli; PhoQ-PhoP variant library, together with: 10 µM Mg2+; reference: high Mg2+ state, higher = stronger signaling).

Some of these lines once more (block 4):
Under “normalised enrichment score”, `ARYKRWLLINDFG [K6W]` is recorded as 0.233.
`ARYKRKLLINDMG [F12M]` — result for “normalised enrichment score”: -0.274.
`ARYKRKLLINDEG [F12E]` — result for “normalised enrichment score”: -0.0449.
For `YRYKRKLLINDFG [A1Y]`, “normalised enrichment score” read -0.0887.
For `ARYKRKLWINDFG [L8W]`, “normalised enrichment score” read 0.52.
